# Experimental data collected from several papers.
# Lines come from different studies, so protocols differ. Several values in a cell are separate wells, animals, samples, runs or records. ± gives the spread as reported.
# Abhydrolase domain-containing protein 11: Abhydrolase domain-containing protein 11 (Rattus norvegicus, UniProt D3ZXK4)
# Chain of UniProt P06276 (whole entry, looked up): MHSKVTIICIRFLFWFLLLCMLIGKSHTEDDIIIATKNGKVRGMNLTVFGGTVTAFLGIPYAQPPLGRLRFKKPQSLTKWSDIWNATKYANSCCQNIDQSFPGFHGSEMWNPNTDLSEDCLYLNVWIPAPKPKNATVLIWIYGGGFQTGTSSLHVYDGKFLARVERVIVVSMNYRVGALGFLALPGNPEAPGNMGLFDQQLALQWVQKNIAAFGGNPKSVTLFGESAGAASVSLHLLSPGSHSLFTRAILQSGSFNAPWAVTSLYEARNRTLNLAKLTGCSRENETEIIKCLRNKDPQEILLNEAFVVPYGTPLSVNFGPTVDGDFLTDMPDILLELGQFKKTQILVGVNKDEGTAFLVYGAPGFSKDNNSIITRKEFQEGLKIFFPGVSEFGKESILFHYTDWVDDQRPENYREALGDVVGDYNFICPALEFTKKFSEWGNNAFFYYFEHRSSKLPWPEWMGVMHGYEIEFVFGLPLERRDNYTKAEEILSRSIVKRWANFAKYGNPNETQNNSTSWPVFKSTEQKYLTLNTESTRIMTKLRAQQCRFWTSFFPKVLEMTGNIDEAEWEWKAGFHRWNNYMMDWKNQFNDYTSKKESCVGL
# Chain of UniProt Q92743 (whole entry, looked up): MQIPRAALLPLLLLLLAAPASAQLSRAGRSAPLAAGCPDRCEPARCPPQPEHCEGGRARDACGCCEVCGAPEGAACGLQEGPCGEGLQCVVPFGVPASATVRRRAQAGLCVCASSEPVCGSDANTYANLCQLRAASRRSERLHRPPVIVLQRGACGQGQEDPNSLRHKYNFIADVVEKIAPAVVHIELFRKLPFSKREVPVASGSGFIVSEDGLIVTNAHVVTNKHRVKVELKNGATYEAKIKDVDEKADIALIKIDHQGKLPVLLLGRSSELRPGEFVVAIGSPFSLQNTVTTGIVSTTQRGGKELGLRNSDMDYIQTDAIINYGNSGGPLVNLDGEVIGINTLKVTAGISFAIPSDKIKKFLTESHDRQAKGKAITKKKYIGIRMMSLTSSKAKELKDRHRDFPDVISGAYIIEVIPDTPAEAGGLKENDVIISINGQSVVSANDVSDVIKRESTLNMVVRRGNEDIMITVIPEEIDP
# Chain of UniProt Q00975 (whole entry, looked up): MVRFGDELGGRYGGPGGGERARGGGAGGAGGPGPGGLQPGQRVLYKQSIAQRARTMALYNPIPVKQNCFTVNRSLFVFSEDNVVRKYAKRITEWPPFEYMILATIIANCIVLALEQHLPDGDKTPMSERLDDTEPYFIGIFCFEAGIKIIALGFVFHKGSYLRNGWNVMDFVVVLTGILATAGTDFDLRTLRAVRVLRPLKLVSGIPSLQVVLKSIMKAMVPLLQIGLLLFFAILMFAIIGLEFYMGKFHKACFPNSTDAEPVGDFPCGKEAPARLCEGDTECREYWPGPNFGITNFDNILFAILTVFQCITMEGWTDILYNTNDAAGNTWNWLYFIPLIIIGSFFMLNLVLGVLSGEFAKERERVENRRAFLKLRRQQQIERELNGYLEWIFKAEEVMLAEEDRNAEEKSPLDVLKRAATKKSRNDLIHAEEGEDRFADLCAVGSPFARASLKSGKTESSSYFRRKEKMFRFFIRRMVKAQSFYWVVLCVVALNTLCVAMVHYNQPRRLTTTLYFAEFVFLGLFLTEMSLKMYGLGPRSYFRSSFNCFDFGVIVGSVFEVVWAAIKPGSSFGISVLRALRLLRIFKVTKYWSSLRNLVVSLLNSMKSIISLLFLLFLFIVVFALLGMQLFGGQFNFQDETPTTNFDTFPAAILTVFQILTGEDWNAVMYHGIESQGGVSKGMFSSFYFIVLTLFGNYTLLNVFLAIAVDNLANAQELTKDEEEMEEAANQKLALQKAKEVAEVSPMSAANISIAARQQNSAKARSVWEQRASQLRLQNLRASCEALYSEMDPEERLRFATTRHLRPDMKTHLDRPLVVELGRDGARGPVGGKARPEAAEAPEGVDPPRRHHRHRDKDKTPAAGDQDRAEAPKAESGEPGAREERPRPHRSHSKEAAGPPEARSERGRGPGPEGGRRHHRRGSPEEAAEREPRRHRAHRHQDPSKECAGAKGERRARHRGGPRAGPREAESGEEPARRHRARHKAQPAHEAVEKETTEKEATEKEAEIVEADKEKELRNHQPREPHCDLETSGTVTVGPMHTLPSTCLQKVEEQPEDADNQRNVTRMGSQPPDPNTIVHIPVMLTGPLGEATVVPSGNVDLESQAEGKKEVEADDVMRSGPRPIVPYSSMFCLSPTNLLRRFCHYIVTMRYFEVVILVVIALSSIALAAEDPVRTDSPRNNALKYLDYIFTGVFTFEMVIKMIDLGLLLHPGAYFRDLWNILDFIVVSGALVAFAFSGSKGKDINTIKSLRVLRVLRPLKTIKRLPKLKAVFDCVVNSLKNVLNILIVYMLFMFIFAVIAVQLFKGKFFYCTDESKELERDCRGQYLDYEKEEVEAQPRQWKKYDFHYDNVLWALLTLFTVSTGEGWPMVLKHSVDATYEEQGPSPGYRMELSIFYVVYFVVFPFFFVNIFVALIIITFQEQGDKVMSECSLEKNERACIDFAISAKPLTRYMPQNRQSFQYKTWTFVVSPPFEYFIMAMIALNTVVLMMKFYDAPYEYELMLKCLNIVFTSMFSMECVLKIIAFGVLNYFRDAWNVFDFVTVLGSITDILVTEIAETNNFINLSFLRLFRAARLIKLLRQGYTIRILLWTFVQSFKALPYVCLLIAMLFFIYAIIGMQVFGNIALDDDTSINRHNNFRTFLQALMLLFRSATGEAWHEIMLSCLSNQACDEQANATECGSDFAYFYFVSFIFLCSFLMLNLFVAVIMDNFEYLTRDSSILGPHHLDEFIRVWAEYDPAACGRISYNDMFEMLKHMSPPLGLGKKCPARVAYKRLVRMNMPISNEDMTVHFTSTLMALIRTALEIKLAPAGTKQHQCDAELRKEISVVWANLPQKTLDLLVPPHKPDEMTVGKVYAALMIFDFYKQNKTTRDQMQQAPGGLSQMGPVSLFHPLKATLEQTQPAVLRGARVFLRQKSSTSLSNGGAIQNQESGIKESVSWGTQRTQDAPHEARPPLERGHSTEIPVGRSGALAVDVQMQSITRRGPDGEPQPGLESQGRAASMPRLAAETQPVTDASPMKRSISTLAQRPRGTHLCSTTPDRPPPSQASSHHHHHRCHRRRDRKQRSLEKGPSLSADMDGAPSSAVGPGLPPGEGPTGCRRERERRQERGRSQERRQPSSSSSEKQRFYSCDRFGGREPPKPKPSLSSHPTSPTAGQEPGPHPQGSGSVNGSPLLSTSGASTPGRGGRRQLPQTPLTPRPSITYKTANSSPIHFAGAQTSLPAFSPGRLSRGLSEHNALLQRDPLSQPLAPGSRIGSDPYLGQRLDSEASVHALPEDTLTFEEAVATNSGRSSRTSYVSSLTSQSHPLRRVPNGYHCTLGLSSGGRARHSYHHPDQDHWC
# Chain of UniProt Q62351 (whole entry, looked up): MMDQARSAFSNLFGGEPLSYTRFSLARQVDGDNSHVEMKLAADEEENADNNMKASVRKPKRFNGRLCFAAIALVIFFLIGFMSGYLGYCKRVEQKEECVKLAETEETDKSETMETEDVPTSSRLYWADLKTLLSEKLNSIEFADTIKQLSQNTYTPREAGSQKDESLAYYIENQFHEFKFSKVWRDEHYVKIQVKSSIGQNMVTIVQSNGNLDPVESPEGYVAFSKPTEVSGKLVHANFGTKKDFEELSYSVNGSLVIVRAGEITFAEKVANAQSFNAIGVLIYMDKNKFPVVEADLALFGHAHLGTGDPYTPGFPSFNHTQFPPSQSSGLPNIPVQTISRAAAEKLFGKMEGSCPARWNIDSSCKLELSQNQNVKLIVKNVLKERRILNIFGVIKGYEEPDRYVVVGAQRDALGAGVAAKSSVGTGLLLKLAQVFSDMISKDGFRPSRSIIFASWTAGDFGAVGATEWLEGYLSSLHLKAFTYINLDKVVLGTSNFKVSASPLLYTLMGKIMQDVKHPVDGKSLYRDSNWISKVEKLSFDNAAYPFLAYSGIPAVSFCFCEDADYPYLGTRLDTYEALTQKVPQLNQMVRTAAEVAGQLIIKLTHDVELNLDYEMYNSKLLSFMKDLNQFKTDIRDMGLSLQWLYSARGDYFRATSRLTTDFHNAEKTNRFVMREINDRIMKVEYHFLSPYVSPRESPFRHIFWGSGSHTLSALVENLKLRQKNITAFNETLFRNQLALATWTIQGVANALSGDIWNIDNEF
# Chain of UniProt P81908 (whole entry, looked up): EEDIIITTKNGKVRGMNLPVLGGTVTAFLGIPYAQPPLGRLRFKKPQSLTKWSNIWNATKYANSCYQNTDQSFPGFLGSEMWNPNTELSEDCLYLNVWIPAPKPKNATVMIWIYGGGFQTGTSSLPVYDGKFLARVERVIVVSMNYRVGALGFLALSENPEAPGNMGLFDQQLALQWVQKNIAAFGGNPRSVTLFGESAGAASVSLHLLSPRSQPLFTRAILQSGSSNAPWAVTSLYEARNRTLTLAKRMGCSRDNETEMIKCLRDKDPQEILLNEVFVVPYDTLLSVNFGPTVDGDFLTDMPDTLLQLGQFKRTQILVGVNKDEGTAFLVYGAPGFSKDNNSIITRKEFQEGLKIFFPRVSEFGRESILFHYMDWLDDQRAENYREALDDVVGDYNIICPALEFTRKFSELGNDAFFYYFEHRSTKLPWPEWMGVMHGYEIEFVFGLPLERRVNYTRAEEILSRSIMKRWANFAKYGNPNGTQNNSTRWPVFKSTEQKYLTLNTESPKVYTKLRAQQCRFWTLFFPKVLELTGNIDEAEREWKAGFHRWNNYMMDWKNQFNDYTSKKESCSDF
# Chain of UniProt Q8N9F0 (whole entry, looked up): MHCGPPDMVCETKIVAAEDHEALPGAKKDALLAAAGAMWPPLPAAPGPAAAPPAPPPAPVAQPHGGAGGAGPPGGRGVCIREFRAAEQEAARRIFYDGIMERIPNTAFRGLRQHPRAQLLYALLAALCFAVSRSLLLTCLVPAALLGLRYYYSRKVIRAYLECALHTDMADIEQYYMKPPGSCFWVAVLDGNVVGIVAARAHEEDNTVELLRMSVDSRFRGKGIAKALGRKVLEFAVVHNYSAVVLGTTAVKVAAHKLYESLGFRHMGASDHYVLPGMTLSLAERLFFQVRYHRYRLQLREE
SMILES,target or system,test,system,conditions,how to read,quantity,value
OC[C@@H](O)c1ccccc1,"uncharacterized protein (Streptomyces globisporus, UniProt Q8GMG2)","ester bond formation, substrate, HPLC",,acceptor substrate,,Km,3500 µM
Nc1nc2c(ncn2[C@H]2C[C@H](O)[C@@H](COP(=O)(O)OP(=O)(O)OP(=O)(O)O)O2)c(=O)[nH]1,"Gag-Pol polyprotein, reverse transcriptase (gag-pol, Human immunodeficiency virus type 1 group M subtype B, UniProt P04585, K653R)","nucleotide misincorporation, steady-state kinetics",,"K66R RT, added: matched template/primer, template T",,kcat,0.138 ± 0.0128 s⁻¹
NCc1cc(=O)[nH]o1,"GABA-A receptor; alpha-1/beta-2/gamma-2 (Rattus norvegicus, UniProt P18508+P62813+P63138)","chloride current, agonist, whole-cell patch clamp",HEK293 expressing GABAA,30 s,baseline: maximum,maximal response,116%
CN1CCN(c2cc(-c3ccncc3)c(-c3ccc4ccccc4c3)nn2)CC1,"HCRTR2 (Homo sapiens, UniProt O43614)","agonist, FLIPR calcium",,12.5 µM,,activation,-3%
CCCCOP(=O)(O)C(C)=O,"dxs (Pseudomonas aeruginosa, UniProt Q9KGU7, R106A)","inhibitor, DXPS-IspC coupled",,,baseline: wild-type enzyme,IC50 fold increase,15 fold
CCN(CC)CCOCCOC(=O)C1(c2ccccc2)CCCC1,"Cholinesterase (BCHE, Homo sapiens, UniProt P06276)",,,"concentration not given, Triton",,efficacy,-77 ± 5.89%
CCNC(=O)N1CCN(CCCC(c2ccc(F)cc2)c2ccc(F)cc2)CC1,Plasmodium falciparum,,D10,,,IC50,2000 nM
O=C(Nc1cccnn1)N1CCC(=Cc2cccc(Oc3ccc(C(F)(F)F)cn3)c2)CC1,"High affinity choline transporter 1 (Rattus norvegicus, UniProt Q9JMD7)",radioligand binding,,"50 µM, rat transporter, added: [3H]hemicholinium-3",,inhibition of binding,12%
COc1cc(CCC(=O)N2CCC(Cc3ccccc3)CC2)ccc1OC(=O)N(c1ccccc1)c1ccccc1,"Cholinesterase (BCHE, Equus caballus, UniProt P81908)",Ellman,equine serum BuChE,,baseline: AChE IC50 over BuChE IC50,selectivity ratio,0.4
O=C(c1ccc(Cl)cc1)N1CCN2C(=O)N(OC(=O)N3CCOc4ccccc43)C(=O)C2C1 (stereo not shown),"Serine protease HTRA1 (Homo sapiens, UniProt Q92743)",MS-based ABPP,SW-620 conditioned medium,"10 µM, 1 h, 37 °C","baseline: compound over DMSO, lower = more inhibition",peptide ratio,1.03 and 1.15 and 1.38 and 1.18 and 1.49 and 1.14 and 1.13 and 1.02
Fc1ccc(Oc2ccnc3cc(Cl)cc(Cl)c23)cc1,"PPARG (Homo sapiens, UniProt P37231)","reporter gene, agonist, β-lactamase reporter",HEK293-H cells,nominal concentration,baseline: cytotoxicity IC10 over EC10,specificity ratio,24.4
C=C(F)c1sc(CNCCCNc2cc(O)c3ccccc3n2)c(C)c1Br,"Cholinesterase (BCHE, Homo sapiens, UniProt P06276)",,,"concentration not given, Triton",,efficacy,-76.2 ± 9.21%
Nc1nc2c(ncn2[C@@H]2O[C@@H]3COP(=O)(O)O[C@H]4[C@@H](O)[C@H](n5cnc6c(=O)[nH]c(N)nc65)O[C@@H]4COP(=O)(O)O[C@H]3[C@H]2O)c(=O)[nH]1,"Cell cycle histidine kinase CckA, G318A; cytoplasmic region (Caulobacter vibrioides, UniProt Q9X688, G318A)","binding, ITC",,added: ADP 5 mM,,ΔS,23.4 cal/mol/K
OC1CCN(c2ncnc3[nH]cc(-c4cccc(Cl)c4)c23)CC1,"LRRK2 (Homo sapiens, UniProt Q5S007)",NanoBRET,cells,,"baseline: PF-06447475, fold lower potency",potency ratio,> 13 fold
CCCCCCCCCC(=O)N[C@@H](CCCN=C(N)N)C(=O)N[C@H](C(=O)N[C@@H](CCCCN)C(=O)N[C@@H](CCCN=C(N)N)C(=O)CCl)C(C)C,"Furin (FURIN, Homo sapiens, UniProt P09958)","enzyme activity, inhibitor",,,,Hill slope,-1.19
CC[C@@H](C)[C@@H](NC(=O)[C@@H](Cc1ccc(O)cc1)NC(=O)[C@H]1CCCN1C(=O)[C@@H](CCCNC(=N)N)NC(=O)[C@H](N)Cc1c[nH]cn1)C(=O)N[C@H](C)C(=O)N[C@H](Cc1c[nH]cn1)C(=O)N[C@H](CCCNC(=N)N)C(=O)N[C@H](CCCCNC(=O)c1cccc(S(=O)(=O)F)c1)C(=O)N[C@H](Cc1ccc(O)cc1)C(=O)N[C@H](CO)C(=O)N[C@H](Cc1ccccc1)C(N)=O,"Transferrin receptor protein 1 (Tfrc, Mus musculus, UniProt Q62351)",flow cytometry,DC2.4,"2 h, pH 7.4, unit not given",baseline: 0 h,surface expression,0.804 and 0.801
CN(C(=O)n1cnc(-c2ccc[n+]([O-])c2)c1)C1CCCCC1,"HTR4 (Cavia porcellus, UniProt O70528)",radioligand binding,,"10 µM, added: [3H]GR-113808",,inhibition,5%
O=C(O)CCC(=O)C(=O)O,"HIF1AN (Homo sapiens, UniProt Q9NWT6, Y93A)",cosubstrate,,"pH 7.00, 37.0 °C, mutant Y93A, added: CTAD peptide 100 µM, cosubstrate 217 µM",,apparent kcat,0.25 ± 0.0667 s⁻¹
CCN(CC)CCOCCOC(=O)C1(c2ccccc2)CCCC1,Plasmodium falciparum,,Dd2,,,IC50,3160 nM
COc1cc(N)c(Cl)cc1C(=O)NC1CN2CCC1CC2 (stereo not shown),"Trace amine-associated receptor 6 (TAAR6, Homo sapiens, UniProt Q96RI8)","β-arrestin recruitment, TANGO luminescence, item: TAAR6",,concentration not given,baseline: basal luminescence,log2 fold change,-0.161
[2H]c1c([2H])c([C@]2([2H])CCCN2C(=O)C(C)(C)Oc2ccc3cn[nH]c3c2)c([2H])c([2H])c1C([2H])([2H])[2H],"FER (Homo sapiens, UniProt P16591)",KINOMEscan,,1 µM,baseline: DMSO control,remaining binding,80%
Nc1nc2c(ncn2[C@@H]2O[C@H](COP(=O)(O)OP(=O)(O)OP(=O)(O)O)[C@@H](O)[C@H]2O)c(=O)[nH]1,"GTP 3',8-cyclase (moaA, Staphylococcus aureus, UniProt P69848)",substrate,,,,Km,3.1 ± 0.7 µM
Cc1ccc(CCn2c3c(c4cc(Cl)ccc42)CN(C)CC3)cn1,"Cholinesterase (BCHE, Homo sapiens, UniProt P06276)",,,"concentration not given, Triton",,efficacy,-95.2 ± 7.02%
C[C@H]1CN(c2n[nH]c3nc(N[C@H]4CC[C@H](NS(=O)(=O)CCC(F)(F)F)CC4)ncc23)CCO1,"MDH2 (Homo sapiens, UniProt P40926)","inhibitor, Kinobeads competition profiling",,0.16 µM,baseline: vehicle,relative abundance,1.06
O=C(O)C(F)(F)C(F)(F)C(F)(F)C(F)(F)C(F)(F)C(F)(F)C(F)(F)F,"SLC22A12 (Homo sapiens, UniProt Q96S37)","uptake, substrate, two-transporter equation fit",HEK293 cells stably expressing SLC22A12,"2.5 min, 37 °C",,Jmax,1520 ± 841 pmol/min/mg protein
COc1ccc(N2C(=O)N(c3c(C)cccc3Cl)Cc3cnc(Nc4ccc(C5CCN(C)CC5)cc4OC)nc32)nc1,"FES (Homo sapiens, UniProt P07332)",kinase activity,,0.5 µM,,inhibition,93%
C=CCNCC(=O)O,"putA (Sinorhizobium meliloti, UniProt F7X6I3)",covalent inactivator,,23 °C,,kinact/KI,1.6 ± 0.2 M⁻¹ s⁻¹
CC1=C(C(=O)O)N2C(=O)[C@@H](NC(=O)[C@H](N)c3ccccc3)[C@H]2SC1,"Penicillin-binding protein 2B (Streptococcus pneumoniae, UniProt P0A3M6)",inhibitor,,,,kinact/KI,4 ± 2.7 M⁻¹ s⁻¹
Cc1nn(C)cc1-c1nc2c(N3CCN(Cc4ccc(Cl)cc4)CC3)c(Cl)cnc2[nH]1,"Ribosomal protein S6 kinase alpha-1, C-terminal kinase domain (RPS6KA1, Homo sapiens, UniProt Q15418)",KINOMEscan,,1 µM,baseline: DMSO control,remaining binding,92%
CC1(C)CC(=O)c2c(nc3c(c(C#N)cn3Cc3ccccc3)c2-c2ccc(F)cc2)C1,"Gag-Pol polyprotein, reverse transcriptase (gag-pol, Human immunodeficiency virus type 1 group M subtype B, UniProt P04585)","DNA polymerase activity, inhibitor, FRET",,,baseline: mutant over wild type RT,IC50 fold change,3.9
CCCCC/C=C\C/C=C\C/C=C\C/C=C\CCCC(=O)NCCO,"Trpv1 (Mus musculus, UniProt Q704Y3, T551V)",patch clamp,,,,maximal open probability,0.78 ± 0.17
CN(C(=O)n1cnc(-c2ccc[n+]([O-])c2)c1)C1CCCCC1,Abhydrolase domain-containing protein 11,"enzyme activity, ABPP","rat, brain","oral, 100 mg/kg/day, 28 days",baseline: vehicle,fold change,-5.7
CC1(C)C(C=C(Cl)Cl)C1C(=O)OCc1cccc(Oc2ccccc2)c1 (stereo not shown),"uncharacterized protein (Anopheles coluzzii, UniProt A0A6E8VQK1)","enzyme activity, inhibitor",Sf9 cell homogenate,"139.5 µM, 0.1667 h, added: α-naphthyl acetate substrate",baseline: no inhibitor,remaining activity,39.5%
Oc1cc(Cl)cc(-c2cccc(Cl)c2)c1,"Androgen receptor (AR, Homo sapiens, UniProt P10275)","reporter gene, antagonist",,"5 µM, added: DHT 2 nM",baseline: DHT 2 nM,maximum activity,18%
O=C(Nc1cnccc1Cl)N1CCN(Cc2ccc3c(c2)OC(F)(F)O3)CC1,Abhydrolase domain-containing protein 11,"probe labelling, inhibitor, competitive ABPP with azido-FP probe, item: Abhd11",rat brain membrane fraction,1 µM,,inhibition,52.7%
CC(=O)SCCNC(=O)CCNC(=O)[C@H](O)C(C)(C)COP(=O)(O)OP(=O)(O)OC[C@H]1O[C@@H](n2cnc3c(N)ncnc32)[C@H](O)[C@@H]1OP(=O)(O)O,"N-acetylaspartate synthetase (NAT8L, Homo sapiens, UniProt Q8N9F0)","substrate, CPM fluorescence",,30 min,,Km,11 µM
CN1CCc2[nH]c3ccccc3c2CC1.O=C(O)/C=C/C(=O)O,"Voltage-dependent N-type calcium channel subunit alpha-1B (Homo sapiens, UniProt Q00975)","barium current, inhibitor, whole-cell patch clamp",HEK293T,,,Hill coefficient,1.1
COc1cc(/C=C/C(=O)NC2CCN(Cc3ccccc3)CC2)ccc1OC(=O)N1CCCC1,"Cholinesterase (BCHE, Equus caballus, UniProt P81908)",Ellman,equine serum BuChE,,baseline: AChE IC50 over BuChE IC50,selectivity ratio,0.9
Cc1c(Cl)c(=O)oc2cc(OP(=O)(OCCCl)OCCCl)ccc12,"Cholinesterase (BCHE, Homo sapiens, UniProt P06276)",,,"concentration not given, Triton",,efficacy,-78.4 ± 11.8%
NCCCCC(c1ccccc1)(c1ccccc1)c1ccccc1,"KIF11 (Homo sapiens, UniProt P52732)","basal ATPase activity, inhibitor",,,,ligand efficiency,0.33

# A few entries again:
SMILES,target or system,test,system,conditions,how to read,quantity,value
CC(=O)SCCNC(=O)CCNC(=O)[C@H](O)C(C)(C)COP(=O)(O)OP(=O)(O)OC[C@H]1O[C@@H](n2cnc3c(N)ncnc32)[C@H](O)[C@@H]1OP(=O)(O)O,"N-acetylaspartate synthetase (NAT8L, Homo sapiens, UniProt Q8N9F0)","substrate, CPM fluorescence",,30 min,,Km,11 µM
CN1CCc2[nH]c3ccccc3c2CC1.O=C(O)/C=C/C(=O)O,"Voltage-dependent N-type calcium channel subunit alpha-1B (Homo sapiens, UniProt Q00975)","barium current, inhibitor, whole-cell patch clamp",HEK293T,,,Hill coefficient,1.1
